# Measurements gathered from unrelated publications.
# Compare with care: the assays were run in different laboratories. “And” joins repeats or separate records; there may be more than shown. ± marks the error that the study gave.
SMILES,tested on,test,system,conditions,how to read,quantity,value
COc1ccc2c(c1)[nH]c1c(C)nccc12,DU-145,"bisulfite pyrosequencing, measured: RASSF1A promoter CpG site 16",,concentration not given,reference: vehicle,methylation reduction,2.34%
Cc1c(O)c(O)cc2c1CC=C1[C@@]2(C)CC[C@@]2(C)[C@@H]3C[C@](C)(C(=O)O)CC[C@]3(C)CC[C@]12C,iPSC-derived cardiomyocytes,concentration-response fit,,concentration not given,reference: vehicle,fitted bottom MyBP-C level,0%
N#CC(=Cc1ccc(O)cc1)C(=O)O,human neutrophils,"sulfate/chloride exchange, competitive inhibitor",,,,Ki,~230 µM
CC(C)N1CCC(NC2CCN(c3cccc(-c4cc5cc(F)ccc5[nH]4)c3)CC2)CC1,A498,,,,,GI50,1.47 µM
C/C=C(/C)C(=O)O[C@H]1C(C)=C2[C@H]([C@@H]1OC(=O)CCCCCCC)[C@@](C)(OC(C)=O)C[C@H](OC(=O)CCC)[C@@]1(O)[C@H]2OC(=O)[C@@]1(C)O,HEK-293T,"RNA-seq GSEA, measured: Hallmark interferon gamma response",,"500 nM, 6 h",direction not given,normalized enrichment score,-1.07
CC[C@H](C)[C@H](NC(=O)[C@H](CC(N)=O)NC(=O)[C@H](CCCNC(=N)N)NC(=O)[C@@H](NC(=O)[C@@H](NC(=O)[C@H](CC(=O)O)NC(=O)[C@@H](N)CCC(=O)O)[C@@H](C)CC)[C@@H](C)CC)C(=O)N[C@@H](C)C(=O)N[C@@H](CCCNC(=N)N)C(=O)N[C@@H](Cc1c[nH]cn1)C(=O)N[C@@H](CC(C)C)C(=O)N[C@@H](C)C(=O)N[C@@H](CCC(N)=O)C(=O)N[C@H](C(=O)NCC(=O)N[C@@H](CC(=O)O)C(=O)N[C@@H](CO)C(=O)N[C@@H](CCSC)C(=O)N[C@@H](CC(=O)O)C(=O)N[C@@H](CCCNC(=N)N)C(=O)O)C(C)C,BAX-/- MEF expressing BAK only,,,,,EC50,0.54 µM
C=C1C(=O)O[C@H]2C[C@@]3(C)O[C@@H]3CC/C(C)=C/[C@@H](OC(C)=O)[C@H]12,iPSC-derived cardiomyocytes,"concentration-response curve, measured: MyBP-C protein level",,,,EC50,52.4 µM
COc1c(CCC[P+](c2ccccc2)(c2ccccc2)c2ccccc2)cc2c(c1OC)OCO2.[I-],SK-OV-3,SRB,,,,GI50,-5.59 log M
O=S(=O)(Nc1ccc(-c2nc3cc(NS(=O)(=O)c4ccc(F)cc4)ccc3o2)cc1)c1ccc(F)cc1,DLD-1 colorectal cancer,,,48 h,,EC50,15 to 18 µM
COc1c(C)c2c(c(O)c1C/C=C(\C)CCC(=O)O)C(=O)OC2,EJ-28,cell proliferation,bladder cancer,,,IC50,0.646 µM
Cn1cc2cc(C(F)(F)c3nnc4ccc(-c5cnn(C6CC6)c5)nn34)c(F)cc2n1,MKN-45,annexin V/PI flow cytometry,,"200 nM, 48 h",,late apoptotic cells,44% and 38.1% and 45.5%
CC(c1ccccc1)(c1ccc(O)cc1)c1ccc(O)cc1,HepG2 spheroids,Hoechst flow cytometry,,"40 µM, 24 h",,G1 phase cells,73.9 ± 4.49%
Cn1nccc1Nc1nccc(-c2cc3c(s2)C(C)(C)N(CCN2CCOCC2)C3=O)n1,HCT116,IncuCyte,,"concentration not given, 36 (unit not given)",,PI-positive cells,18.7 count and 17.1 count and 12.4 count
Nc1ncc(-c2nc(N3CCOCC3)nc(N3CCOCC3)n2)c(C(F)F)n1,SW948,,,72 h,,GI50,0.118 µM
Cn1cncc1C1=CN(c2ncnc3[nH]cnc23)CCS1,A498,,,renal cancer,,CC50,> 200 µM
CCN(CC)c1ccc(C=NNC(=O)CSc2nc3ccccc3c(=O)n2Cc2ccc(S(N)(=O)=O)cc2)c(O)c1,IGROV-1,NCI five-dose screen,,,,CC50,> 100 µM
COc1cc(CCC[P+](c2ccccc2)(c2ccccc2)c2ccccc2)c(OC)c2c1OCO2.[I-],SNB-75,SRB,,,,TGI,-5.34 log M
COC(=O)/C(C)=C\C[C@@]12OC(C)(C)[C@@H]3C[C@@H](C=C4C(=O)c5c(O)c6c(c(CC=C(C)C)c5O[C@]431)O[C@](C)(CCC=C(C)C)C=C6)C2=O,iPSC-derived cardiomyocytes,concentration-response fit,,,reference: vehicle,fitted bottom MyBP-C/MYH ratio,0%
Oc1ccc(C(c2ccc(O)cc2)(C(F)(F)F)C(F)(F)F)cc1,HepG2 spheroids,Hoechst flow cytometry,,"1 µM, 96 h",,G2 phase cells,16.3 ± 6.73%
Nc1ncnc2c1ncn2[C@@H]1O[C@@H]2COP(=O)(O)O[C@H]3[C@@H](O)[C@H](n4cnc5c(=O)[nH]cnc54)O[C@@H]3COP(=O)(O)O[C@H]2[C@H]1O,HFF-1,"RNA sequencing, measured: Reactome R-HSA-4420332",,downregulated pathway,reference: Zika virus alone,pathway fold enrichment,14.2
O=C1N(Cc2ccccc2Cl)c2ccccc2C12NN=C(c1ccccc1)S2 (stereo not drawn),MDA-MB-468,"gene expression array, measured: DDX1 mRNA",,"10 µM, 12 h","reference: untreated, down",fold change,1.51
COc1ccc(OC)c(N2C(=O)NC(=O)/C(=C\c3ccc([N+](=O)[O-])s3)C2=O)c1,C127 LDR GFP reporter cells,"silenced GFP reporter induction, activator, high-content imaging",,"independent samples, two-run mean",,maximum efficacy,20%
CC1=C(O)C(=O)C=C2C1=CC=C1[C@@]2(C)CC[C@@]2(C)[C@@H]3C[C@](C)(C(=O)O)CC[C@]3(C)CC[C@]12C,iPSC-derived cardiomyocytes,"concentration-response curve, measured: MyBP-C/MYH ratio",,24 h,,EC50,7 µM
C=CCc1ccccc1OCC(O)CNC1(C)CCC(C(C)(C)NC(=O)CBr)CC1 (stereo not drawn),Plasmodium falciparum,,3D7,,,IC50,3.16 µM
COc1ccc([C@H]2c3[nH]c4ccc(Cl)cc4c3CCN2C(=O)Oc2ccc(Cl)cc2)cc1,human dermal fibroblasts with PBMC,"cytokine secretion, measured: MCP-1",,"0.1 µM, 48 h",,inhibition,33%
CN1CC[C@]2(C)c3cc(OC(=O)Nc4ccccc4)ccc3N(C)[C@H]12,human PBMC,"ELISA, measured: IL-1β",,"0.1 to 10 µM, added: PHA 20 µg/mL",,inhibition,~50%
O=S(=O)(c1ccc(O)cc1)c1ccc(O)cc1,HepG2 spheroids,planimetry,,"2.5 µM, 0 to 24 h",reference: mean area of 72 h spheroids,spheroid area increase,181%
CO[C@H]1/C=C\C=C(/C)C(=O)NC2=CC(=O)C(NCCN(C)C)=C(C[C@@H](C)C[C@H](OC)[C@H](O)[C@@H](C)/C=C(\C)[C@@H]1OC(N)=O)C2=O,iPSC-derived cardiomyocytes,"concentration-response curve, measured: MyBP-C protein level",,24 h,,EC50,4.3 µM
C[CH2][Hg][S]c1ccccc1C(=O)[O-].[Na+],BT-12,"cell viability, MTT",,"10 µM, 72 h",,inhibition,95.1%
O=C(O)c1ccc(/C=C2\SC(=S)N(c3cccc(C(F)(F)F)c3)C2=O)cc1,FRT cells expressing human WT CFTR,short-circuit current,,"20 µM, added: forskolin 20 µM",,CFTR current inhibition,inhibited
CC1=CC(=O)c2c(O)cccc2C1=O,MOLT-3,XTT,,,reference: IC50 MRC-5 over IC50 MOLT-3,selectivity index,3.62
O=C1NC(=O)N(CCc2ccc(F)cc2)C(=O)/C1=C/C=C/c1ccccc1,C127 LDR GFP reporter cells,"silenced GFP reporter induction, activator, high-content imaging",,"retest, two-run mean",,efficacy,49%
CN1CCc2cc3c(cc2[C@H]1[C@@H]1OC(=O)c2c1ccc1c2OCO1)OCO3,glutamatergic hiPSC-derived neurons,multi-electrode array,,"concentration not given, 2 h, highest concentration tested",reference: vehicle,network bursting,1.9 fold
Cc1nn(-c2nc3ccc(Cl)c(Cl)c3[nH]2)c(O)c1C1OC(=O)c2ccccc21 (stereo not drawn),RAW-ISG,CCK-8,,1 µM,,viability,106% and 102% and 113% and 121% and 99.9%
CC[C@H](C)[C@@H]([C@@H](CC(=O)N1CCC[C@H]1[C@H](OC)[C@@H](C)C(=O)N[C@@H](Cc1ccccc1)C(=O)O)OC)N(C)C(=O)[C@@H](NC(=O)[C@H](C(C)C)N(C)C(=O)CCSSC[C@H](NC(=O)[C@@H](NC(=O)CNC(=O)[C@H](CCC(=O)O)NC(=O)[C@H](CC(=O)O)NC(=O)[C@H](C)NC(=O)[C@H](CC(=O)O)NC(=O)[C@@H](NC(=O)[C@H](CC(C)C)NC(=O)[C@H](CC(C)C)NC(=O)[C@H](C)NC(=O)[C@H](CC(C)C)NC(=O)[C@H](CC(=O)O)NC(=O)[C@H](CC(C)C)NC(=O)[C@H](CC(C)C)NC(=O)[C@H](CC(C)C)NC(=O)[C@H](CC(C)C)NC(=O)[C@@H]1CCCN1C(=O)[C@@H](NC(=O)[C@@H](NC(=O)[C@H](Cc1ccccc1)NC(=O)[C@H](CC(C)C)NC(=O)[C@H](Cc1c[nH]c2ccccc12)NC(=O)[C@H](CC(=O)O)NC(=O)[C@H](C)NC(=O)[C@H](Cc1ccc(O)cc1)NC(=O)[C@H](CCC(N)=O)NC(=O)[C@H](C)NC(=O)[C@H](Cc1c[nH]c2ccccc12)NC(=O)[C@H](Cc1ccc(O)cc1)NC(=O)[C@@H](NC(=O)[C@@H]1CCCN1C(=O)[C@H](CC(N)=O)NC(=O)[C@H](CCC(N)=O)NC(=O)[C@H](CCC(=O)O)NC(=O)[C@H](C)NC(=O)[C@H](C)N)[C@@H](C)CC)[C@@H](C)O)[C@@H](C)O)C(C)C)[C@@H](C)O)C(=O)NCC(N)=O)C(C)C,HeLa,"cell growth, MTT",,2 h,reference: IC50 pH 7.4 over IC50 pH 5.0,selectivity ratio,5.3 fold
CCc1cccc(N(C)C(=N)Nc2cccc3ccccc23)c1,Plasmodium falciparum,,3D7,,,IC50,12.6 µM
CN1CCN(C2(CNC3CCN(c4cccc(-c5cc6cc(F)ccc6[nH]5)c4)CC3)CCC2)CC1,A498,,,,,GI50,1.68 µM
Oc1cc(Cl)ccc1Oc1ccc(Cl)cc1Cl,HepG2,"high content imaging, measured: DNA structure",,"24 h, distribution mode 2",,point of departure,17 µM
C[C@]12CC[C@H](O)C[C@H]1CC[C@@H]1[C@@H]2CC[C@]2(C)[C@@H](c3ccc(=O)oc3)CC[C@]12O,MCF7,annexin V flow cytometry,,"50 nM, 48 h",,apoptotic cells,29.4% and 33.2% and 24.5%
